Measured values pooled from the literature.
Each line is one published result; not all experiments were run side by side. Numbers after ± are the reported error.

SMILES | tested on | assay | system | conditions | how to read | endpoint | value
[64Cu+2].c1ccc(CNCc2ccc(CN3CCCN4CCNCCCN(CC4)CC3)cc2)nc1 | CXCR4 |  | NOD/SCID mouse, U87 and U87-stb-CXCR4 xenografts, pancreas | iv, 90 min, ex vivo, added: AMD3465 25 mg/kg sc before tracer |  | tissue uptake | 1.38 ± 0.05 %ID/g
CC1(C)COCN1C(=O)n1nnc2c(F)cc(F)cc21 | carboxylesterases (rat) | inhibitor | rat liver microsomes | 10 µM | baseline: control | remaining activity | 82 ± 5%
CN(C)CCCNC(=O)c1cc(NC(=O)c2cc(NC(=O)c3cc(NC(=O)c4nc(NC(=O)[C@H](N)CCNC(=O)c5cc(NC(=O)c6cc(NC(=O)c7nc(NC(=O)c8nccn8C)cn7C)cn6C)cn5C)cn4C)cn3C)cn2C)cn1C | 12-mer DNA duplex | DNA binding, UV thermal denaturation |  | 2.4 µM, pH 7.0, match base pair A·T, added: DNA duplex 2 µM |  | melting temperature | 76.2 ± 1.9 °C
CC(=O)N[C@@H](CC(N)=O)C(=O)NCC(=O)N[C@@H](CCCNC(=N)N)C(=O)N[C@@H](C)C(N)=O | Asn-Gly peptide isomerisation to succinimide | 1H NMR time course |  | pH 7.4, 37 °C |  | rate constant k1 | 0.0318 h⁻¹
O=C(O)c1ccc(/C=C2\SC(=S)N(Cc3cccc(C(F)(F)F)c3)C2=O)cc1 | NLRP3 inflammasome | inhibitor, refers to: caspase-1 activation and IL-1β | PBMC, LPS-primed | concentration not given, dose-dependent, added: nigericin |  | IL-1β production | decreased
Cn1c(=O)oc2ccc(-c3ccc(CC(C#N)NC(=O)C4CNCCCO4)c(F)c3)cc21 (stereo not shown) | neutrophil elastase (rat) | enzyme activity, inhibitor | rat, bone marrow cells |  |  | ED50 | 1.13 mg/kg
COc1cc(CNC(=O)C[C@H](C)CCC=C(C)C)ccc1OCc1cn(-c2ccc(F)cc2)nn1 | MCF7 breast cancer cells | SRB |  | 10 µM, 48 h |  | growth percent | 77.1%
C=C(CC)C(=O)c1ccc(OCC(=O)NCCCCNC(=O)COc2ccc(C(=O)C(=C)CC)c(Cl)c2Cl)c(Cl)c1Cl | glutathione S-transferase, human | enzyme activity | CoC1 cell lysate | 0.2 µM |  | inhibition | ~25%
COCCNc1nc(-c2nccn2C)nc2sc(-c3cccc(OC)c3Cl)c(-c3ccccc3)c12 | Ras | Ras-GTP complex formation, inhibitor, GTP pull-down | PANC-1 | 6 h, added: EGF 15 min |  | IC50 | 1000 to 3000 nM
C[n+]1cn([C@@H]2O[C@H](COP(=O)([O-])OP(=O)(O)CP(=O)(O)O)[C@@H](O)[C@H]2O)c2nc(N)nc(O)c21 |  | cap-dependent translation, inhibitor | rabbit reticulocyte lysate | preincubated 60 min in lysate |  | IC50 | 9870 ± 840 nM
CN(C)CCSSCCNC(=O)c1cccc(F)c1 | human 14-3-3γ/ERRγ DBD phosphopeptide | stabilizer, fluorescence anisotropy |  | 100 µM, pH 8.0, unit not given | baseline: DMSO | PPI stabilization | 1
CN(C)CCCNC(=O)c1cc(NC(=O)c2cc(NC(=O)c3cc(NC(=O)c4nc(NC(=O)[C@H](N)CCNC(=O)c5cc(NC(=O)c6cc(NC(=O)c7nc(NC(=O)c8nccn8C)cn7C)co6)co5)cn4C)cn3C)cn2C)cn1C | 12-mer DNA duplex | DNA binding, UV thermal denaturation |  | 2.4 µM, pH 7.0, match base pair A·T, added: DNA duplex 2 µM |  | melting temperature | 73.2 ± 1.3 °C
NS(=O)(=O)Nc1ncnc(OCCOc2ncc(Br)cn2)c1-c1ccc(Br)cc1 |  | refers to: compound formation | Sprague-Dawley rat female, liver microsomes | 1500 mg/kg daily, 4 weeks |  | Km | 3.8 ± 1 µM
C[n+]1c(/C=C/c2ccc(N(c3ccccc3)c3ccccc3)cc2)cc(/C=C2\Sc3ccccc3N2CCCN2CCCC2)c2ccccc21 | Telo21 G-quadruplex DNA | CD melting |  | 5 µM, 60 mM KCl, added: 5 µM G4-DNA |  | ΔTm | 3.3 °C
CN(C)CCCNC(=O)c1cc(NC(=O)c2cc(NC(=O)c3cc(NC(=O)c4nc(NC(=O)[C@H](N)CCNC(=O)c5cc(NC(=O)c6cc(NC(=O)c7nc(NC(=O)c8nccn8C)cn7C)co6)cn5C)cn4C)cn3C)cn2C)cn1C | 12-mer DNA duplex | DNA binding, UV thermal denaturation |  | 2.4 µM, pH 7.0, mismatch base pair C·G, added: DNA duplex 2 µM |  | melting temperature | 72.9 ± 0.3 °C
O=C(/C=C/c1ccc(O)cc1)OCCCC[P+](c1ccccc1)(c1ccccc1)c1ccccc1 | glutathione peroxidase, rat |  | rat mitochondria | 10 µM, 15 and 30 min |  | glutathione peroxidase activity | increased
CC(C)C[C@H](NC(=O)[C@H](CCC(N)=O)NC(=O)[C@H](CCCNC(=N)N)NC(=O)[C@H](CCCNC(=N)N)NC(=O)[C@@H](NC(=O)[C@H](CCCNC(=N)N)NC(=O)[C@@H](NC(=O)[C@H](CO)NC(=O)[C@@H](N)CS)[C@@H](C)O)C(C)C)C(N)=O | human Nox1/p47phox/NOXA1 | inhibitor, cytochrome c reduction |  | 10 µM |  | superoxide production | no inhibition
Cc1cc(-c2ccc(NC(=O)[C@H](CCCCNC(=O)CCOCCOCCC(=O)N[C@H](Cc3ccccc3)C(=O)N[C@H]3CSSC[C@@H](C(=O)N[C@H](C(=O)O)[C@@H](C)O)NC(=O)[C@H]([C@@H](C)O)NC(=O)[C@H](CCCCN)NC(=O)[C@@H](Cc4c[nH]c5ccccc45)NC(=O)[C@H](Cc4ccc(O)cc4)NC3=O)NC(=O)CN3CCN(CC(=O)O)CCN(CC(=O)O)CCN(CC(=O)O)CC3)c(C)c2)ccc1N=Nc1ccc2c(S(=O)(=O)O)cc(S(=O)(=O)O)c(N)c2c1O [lutetium-177 labelled] |  |  | metastatic NET patients, liver metastases |  |  | residence time | 1.2 ± 0.96 h
CC(C)c1cnc(-c2cc(Cl)ccc2F)cc1Nc1ccncc1C(=O)NC(CO)CO | TGF-β receptor type 1 (human) | SMAD2 Ser465/467 phosphorylation, inhibitor | human PBMC | unbound drug, added: TGF-β |  | IC50 | 56.8 ± 7.73 nM
CCCCN1C(=O)c2cccc3c(NCCCCCCN4CCOCC4)ccc(c23)C1=O | lysosomes |  | BHK-21 | lysosomal micro-polarity | baseline: water | blue shift of emission maximum | 32 nm

SMILES | tested on | assay | system | conditions | how to read | endpoint | value
CN(C)CCCNC(=O)c1cc(NC(=O)c2cc(NC(=O)c3cc(NC(=O)c4nc(NC(=O)[C@H](N)CCNC(=O)c5cc(NC(=O)c6cc(NC(=O)c7nc(NC(=O)c8nccn8C)cn7C)cn6C)co5)cn4C)cn3C)cn2C)cn1C | 12-mer DNA duplex | DNA binding, UV thermal denaturation |  | 2.4 µM, pH 7.0, match base pair A·T, added: DNA duplex 2 µM |  | melting temperature | 73.8 ± 0.3 °C
CO[C@@H]1[C@H](O)[C@@H](COP(=O)(O)OP(=O)([S-])OP(=O)(S)OP(=O)(O)OC[C@H]2O[C@@H](n3cnc4c(=O)[nH]c(N)nc43)[C@H](O)[C@@H]2O)O[C@H]1n1c[n+](C)c2c(O)nc(N)nc21 (mixture of isomers) | Schizosaccharomyces pombe Dcp1/Dcp2 | substrate |  | 5 to 15 min, RNA capped with compound |  | decapped RNA | 10 to 30%
C1=[N+]2CCCC[N+]3=Cc4ccc5[n]4[Au-]23[n]2c1ccc2-c1nc2ccccc2nc1-5.F[P-](F)(F)(F)(F)F | dsDNA fragment human ACTN3 291 bp | DNA melting |  | 50 µM |  | delta Tm | 4.4 °C
C[N+](C)(CBr)CC(=O)O | TMA lyase | TMA production, whole-cell | Proteus mirabilis, wild type |  |  | EC50 | 1300 nM
O=Cc1c(O)ccc2ccccc12 | HUVEC | RNA sequencing, refers to: DUSP8 |  | 75 µM, 24 h | baseline: DMSO | log2 fold change | 3.02
Cc1sc2ncn(CC(=O)N3CCCC3)c(=O)c2c1-c1ccc(Cl)cc1 | NMDA receptor rat recombinant | potentiator, voltage clamp |  | dose not given, added: saturating agonists | baseline: control | current potentiation | 1.6 to 2.8 fold
Br.Br.O=c1c(O)cccn1CCN1CCN(CCn2cccc(O)c2=O)CC1 | Fe(III) | mono-HOPO complex formation |  | 25 °C, ionic strength 0.10 M |  | log β | 14.6
N=C(N)c1ccc(-c2ccc(-c3cccs3)o2)nc1 | Salmonella typhimurium | liquid broth OD | TA1535 | 25 µM, 15 h | baseline: growth | viability | 101 ± 4.4%
COc1cc(CCC(C)=O)ccc1O | mAb 6-AT6 | antibody binding, indirect competitive ELISA |  | added: coating antigen 6-OVA |  | IC50 | > 4 µg/mL
C[N+](C)(CCl)CC(=O)O | TMA lyase | TMA production, whole-cell | Proteus mirabilis, wild type |  |  | EC50 | 5000 nM
Cc1ccc(NC(=O)c2c(C)oc3ccc(O)c(CN4CCCCCC4)c23)cc1 | HIV TAR RNA | binding, small molecule microarray |  |  | direction not given | composite Z-score | 0.45
CCCCC/C=C/C(=O)CCc1ccc(O)c(OC)c1 | mAb 6-AT6 | antibody binding, indirect competitive ELISA |  | added: coating antigen 2-OVA |  | IC50 | > 4 µg/mL
NS(=O)(=O)c1ccc(N2N=C(C(F)(F)F)CC2c2ccc(F)cc2F)cc1 (stereo not shown) | dog COX-1 and COX-2 |  | dog whole blood |  | baseline: IC50 COX-1 over COX-2 | selectivity ratio | 3.2
Cc1nn(-c2ccc(S(=O)(=O)N[C@H](CO)CC(C)C)cc2)c2nn3nnnc3nc12 | PC-3 | PI/Hoechst staining |  | 1 µM, 24 h |  | necrotic cells | 21.5 ± 3.56%
CC(=O)N[C@H](C(=O)N[C@H](C(=O)N[C@@H](CCCNC(=N)N)C(=O)N1Cc2ccccc2C[C@H]1C(=O)N[C@@H](Cc1ccccc1)C(N)=O)C1CCCCC1)C(C)C | human PBMC | Bio-Plex multiplex, refers to: IL-8 |  | 250 µg/mL, 24 h |  | cytokine level | 15700 ± 14400 pg/mL
CCOC(=O)C(Cc1cccc(O)c1)OC(=O)C=Cc1ccc(O)c(O)c1C=Cc1ccc(O)c(O)c1 (stereo not shown) | actin with transgelin | negative-stain electron microscopy |  | concentration not given |  | F-actin amount | increased
CCOC(=O)c1ccc(N2NC(=O)/C(=C/c3ccc([N+](=O)[O-])o3)C2=O)cc1 | Ub(G76V)-GFP reporter | inhibitor | human cells | concentration not given |  | protein degradation | inhibited
CC(=O)N[C@@H](CC(N)=O)C(=O)NCC(=O)N[C@@H](C)C(=O)N[C@@H](C)C(N)=O | Asn-Gly peptide isomerisation to succinimide | 1H NMR time course |  | pH 7.4, 55 °C |  | rate constant k1 | 0.219 h⁻¹
Cc1c(OCc2ccccc2)c(=O)ccn1CCCOC(=O)c1ccccc1Cl | β-hematin formation |  |  | 200 µg/mL, 24 h, 60 °C |  | inhibition | 34%
C[n+]1cn(C2OC(COP(=O)(O)OP(=O)([O-])C(F)(F)P(=O)(O)OP(=O)(O)OCC3OC(n4cnc5c(=O)[nH]c(N)nc54)C(O)C3O)C(O)C2O)c2nc(N)nc(O)c21 (stereo not shown) |  | cap-dependent translation, inhibitor | rabbit reticulocyte lysate | 60 min, 30 °C, no preincubation |  | IC50 | 2950 ± 320 nM
